# Measurements pooled from the literature.
# Compare with care: the assays were run in different laboratories.
# Target: Alpha-glucosidase MAL12 (MAL12, Saccharomyces cerevisiae S288c, UniProt P53341)
# Chain of UniProt P53341 (whole entry, looked up): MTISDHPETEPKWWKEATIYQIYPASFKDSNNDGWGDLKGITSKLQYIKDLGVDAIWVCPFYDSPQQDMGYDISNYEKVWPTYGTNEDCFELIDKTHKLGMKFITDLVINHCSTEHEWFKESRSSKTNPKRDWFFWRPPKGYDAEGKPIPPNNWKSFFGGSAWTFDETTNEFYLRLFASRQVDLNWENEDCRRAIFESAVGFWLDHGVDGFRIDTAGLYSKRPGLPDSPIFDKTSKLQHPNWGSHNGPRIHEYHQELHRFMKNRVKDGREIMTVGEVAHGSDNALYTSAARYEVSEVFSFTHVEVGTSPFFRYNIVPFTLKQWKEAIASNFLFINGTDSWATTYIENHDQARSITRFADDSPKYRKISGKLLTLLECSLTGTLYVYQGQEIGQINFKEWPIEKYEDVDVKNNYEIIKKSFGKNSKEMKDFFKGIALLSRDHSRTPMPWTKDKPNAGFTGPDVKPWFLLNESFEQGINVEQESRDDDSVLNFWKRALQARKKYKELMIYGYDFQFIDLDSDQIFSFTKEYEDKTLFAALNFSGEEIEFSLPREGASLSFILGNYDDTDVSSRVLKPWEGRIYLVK
# Effect on: enzyme activity
SMILES,test,conditions,inhibition [%]
O=C1C(=O)N(CCOc2ccc(F)cc2)c2ccc(Cl)cc21,inhibitor,"500 µM, pH 6.8",91.6
COc1c(-c2cccc(O)c2)oc2c(OC)c(O)cc(O)c2c1=O,p-nitrophenyl glucoside substrate,"10 µM, series 250 to 10 µM",> 50
O=C1C(=O)N(CCOc2ccc(F)cc2)c2ccccc21,inhibitor,"500 µM, pH 6.8",74.8
O=c1c(-c2ccc(O)cc2)coc2c(Cn3cccn3)c(O)ccc12,inhibitor,"25 µM, pH 6.8",62.5
COc1cc(-c2oc3cc(O)cc(O)c3c(=O)c2OC)ccc1O,"inhibitor, absorbance",50 µM,94.9
O=C1C(=O)N(CCOc2ccc(Br)cc2)c2ccc(Cl)cc21,inhibitor,"500 µM, pH 6.8",91.9
COc1cc(O)c2c(=O)c(OC)c(-c3ccc(O)c(O)c3)oc2c1,"inhibitor, absorbance",250 µM,86.4
COc1ccc(-c2c(C(F)(F)F)oc3c(Cn4ccnc4)c(O)ccc3c2=O)cc1,inhibitor,"25 µM, pH 6.8",73.7
Cc1cccc(/C=C/C(=O)c2cnn(-c3ccccc3)c2C)c1,inhibitor,140 µM,17.5

# For quick reference, copied from above:
SMILES,test,conditions,inhibition [%]
O=C1C(=O)N(CCOc2ccc(F)cc2)c2ccc(Cl)cc21,inhibitor,"500 µM, pH 6.8",91.6
